Earlier results as cited in several papers.
Lines come from different studies, so protocols differ. Numbers after ± are the reported error.

COc1cc([C@@H]2c3cc4c(cc3[C@@H](O[C@@H]3O[C@@H]5CO[C@@H](C)O[C@H]5[C@H](O)[C@H]3O)[C@H]3COC(=O)[C@H]23)OCO4)cc(OC)c1O
IC50 (MRP2; inhibitor): 48 µM

C=C[C@@H]1C[C@]1(NC(=O)[C@@H]1C[C@@H]2CN1C(=O)[C@H](C(C)(C)C)NC(=O)O[C@@H]1C[C@H]1CCCCCc1nc3ccc(OC)cc3nc1O2)C(=O)NS(=O)(=O)C1CC1
IC50 (P-glycoprotein; digoxin transport, inhibitor): > 100 µM

O=C(O)C(F)(F)C(F)(F)C(F)(F)C(F)(F)C(F)(F)C(F)(F)C(F)(F)C(F)(F)F
IC50 (CYP2C9; inhibitor; Tox21 screening): 1.64 ± 0.69 µM

C=C(C)[C@@H]1CCC(C)=C[C@H]1c1c(O)cc(CCCCC)cc1O
IC50 (CYP3A5): 1.65 µM

O[C@H]1CCCN[C@@H]1CCCn1cnc2c(Cl)c(Cl)ccc21
IC50 (OCT1; inhibitor): 55.3 µM

CC(C)(C)NCc1ccc(Nc2ccnc3cc(Cl)ccc23)cc1O
IC50 (hERG channel; cell-based): 7.5 µM

O=C(O)C(F)(F)C(F)(F)C(F)(F)C(F)(F)C(F)(F)C(F)(F)F
IC50 (CYP2C9; inhibitor; Tox21 screening): 6.33 µM

C[C@H](Cc1cc2c(c(C(N)=O)c1)N(CCCO)CC2)NCCOc1ccccc1OCC(F)(F)F
IC50 (hERG (human); inhibitor): 8.91 µM

FC1(F)C(F)(F)C(F)(F)C2(F)C(F)(C1(F)F)C(F)(F)C(F)(F)C1(F)C(F)(F)C(F)(F)C(F)(F)C(F)(F)C12F (stereo not shown)
IC50 (CYP2C9; inhibitor; Tox21 screening): inactive

O=c1[nH]ncn1-c1ccc(N2CCN(c3ccc(OCC4COC(Cn5cncn5)(c5ccc(Cl)cc5Cl)O4)cc3)CC2)cc1 (stereo not shown)
IC50 (CYP3A4 human; inhibitor; with: midazolam): 0.00044 µM
